Published values gathered from unrelated publications.
Parts stem from different laboratories: compare values within a part only. Positions count from the first letter of the parent shown.
UniProt P07949, sequence (whole entry, unmodified, looked up): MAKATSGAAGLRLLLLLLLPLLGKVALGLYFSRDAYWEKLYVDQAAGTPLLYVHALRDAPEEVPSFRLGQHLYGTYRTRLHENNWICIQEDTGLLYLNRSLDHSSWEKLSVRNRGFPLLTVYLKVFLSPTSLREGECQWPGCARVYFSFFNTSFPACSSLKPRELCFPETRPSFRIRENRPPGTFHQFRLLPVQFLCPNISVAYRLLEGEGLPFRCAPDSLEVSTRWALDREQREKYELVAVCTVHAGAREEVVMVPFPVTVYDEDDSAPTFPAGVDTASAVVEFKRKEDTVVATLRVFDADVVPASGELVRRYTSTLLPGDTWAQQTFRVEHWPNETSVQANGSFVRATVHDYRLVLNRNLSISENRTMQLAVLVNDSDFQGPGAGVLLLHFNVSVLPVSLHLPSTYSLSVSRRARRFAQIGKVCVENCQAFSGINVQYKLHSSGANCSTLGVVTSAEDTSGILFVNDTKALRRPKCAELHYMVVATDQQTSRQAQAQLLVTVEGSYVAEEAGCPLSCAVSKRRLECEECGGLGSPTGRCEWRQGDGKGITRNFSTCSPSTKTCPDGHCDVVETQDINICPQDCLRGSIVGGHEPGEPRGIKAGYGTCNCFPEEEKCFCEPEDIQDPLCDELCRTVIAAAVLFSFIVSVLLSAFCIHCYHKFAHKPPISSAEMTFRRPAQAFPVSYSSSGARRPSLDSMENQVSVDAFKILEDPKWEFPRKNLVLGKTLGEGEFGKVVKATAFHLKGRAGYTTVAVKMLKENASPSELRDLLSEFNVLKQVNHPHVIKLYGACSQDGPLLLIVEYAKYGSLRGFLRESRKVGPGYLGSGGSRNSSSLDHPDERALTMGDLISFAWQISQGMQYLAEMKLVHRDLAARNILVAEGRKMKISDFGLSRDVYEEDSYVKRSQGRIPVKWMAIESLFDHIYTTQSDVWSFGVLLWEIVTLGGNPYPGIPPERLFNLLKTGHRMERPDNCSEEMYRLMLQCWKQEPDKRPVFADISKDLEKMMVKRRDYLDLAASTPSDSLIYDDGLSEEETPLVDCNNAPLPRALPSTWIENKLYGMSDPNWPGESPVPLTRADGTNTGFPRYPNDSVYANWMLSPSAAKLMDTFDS
UniProt Q9Y3S1, sequence (whole entry, looked up): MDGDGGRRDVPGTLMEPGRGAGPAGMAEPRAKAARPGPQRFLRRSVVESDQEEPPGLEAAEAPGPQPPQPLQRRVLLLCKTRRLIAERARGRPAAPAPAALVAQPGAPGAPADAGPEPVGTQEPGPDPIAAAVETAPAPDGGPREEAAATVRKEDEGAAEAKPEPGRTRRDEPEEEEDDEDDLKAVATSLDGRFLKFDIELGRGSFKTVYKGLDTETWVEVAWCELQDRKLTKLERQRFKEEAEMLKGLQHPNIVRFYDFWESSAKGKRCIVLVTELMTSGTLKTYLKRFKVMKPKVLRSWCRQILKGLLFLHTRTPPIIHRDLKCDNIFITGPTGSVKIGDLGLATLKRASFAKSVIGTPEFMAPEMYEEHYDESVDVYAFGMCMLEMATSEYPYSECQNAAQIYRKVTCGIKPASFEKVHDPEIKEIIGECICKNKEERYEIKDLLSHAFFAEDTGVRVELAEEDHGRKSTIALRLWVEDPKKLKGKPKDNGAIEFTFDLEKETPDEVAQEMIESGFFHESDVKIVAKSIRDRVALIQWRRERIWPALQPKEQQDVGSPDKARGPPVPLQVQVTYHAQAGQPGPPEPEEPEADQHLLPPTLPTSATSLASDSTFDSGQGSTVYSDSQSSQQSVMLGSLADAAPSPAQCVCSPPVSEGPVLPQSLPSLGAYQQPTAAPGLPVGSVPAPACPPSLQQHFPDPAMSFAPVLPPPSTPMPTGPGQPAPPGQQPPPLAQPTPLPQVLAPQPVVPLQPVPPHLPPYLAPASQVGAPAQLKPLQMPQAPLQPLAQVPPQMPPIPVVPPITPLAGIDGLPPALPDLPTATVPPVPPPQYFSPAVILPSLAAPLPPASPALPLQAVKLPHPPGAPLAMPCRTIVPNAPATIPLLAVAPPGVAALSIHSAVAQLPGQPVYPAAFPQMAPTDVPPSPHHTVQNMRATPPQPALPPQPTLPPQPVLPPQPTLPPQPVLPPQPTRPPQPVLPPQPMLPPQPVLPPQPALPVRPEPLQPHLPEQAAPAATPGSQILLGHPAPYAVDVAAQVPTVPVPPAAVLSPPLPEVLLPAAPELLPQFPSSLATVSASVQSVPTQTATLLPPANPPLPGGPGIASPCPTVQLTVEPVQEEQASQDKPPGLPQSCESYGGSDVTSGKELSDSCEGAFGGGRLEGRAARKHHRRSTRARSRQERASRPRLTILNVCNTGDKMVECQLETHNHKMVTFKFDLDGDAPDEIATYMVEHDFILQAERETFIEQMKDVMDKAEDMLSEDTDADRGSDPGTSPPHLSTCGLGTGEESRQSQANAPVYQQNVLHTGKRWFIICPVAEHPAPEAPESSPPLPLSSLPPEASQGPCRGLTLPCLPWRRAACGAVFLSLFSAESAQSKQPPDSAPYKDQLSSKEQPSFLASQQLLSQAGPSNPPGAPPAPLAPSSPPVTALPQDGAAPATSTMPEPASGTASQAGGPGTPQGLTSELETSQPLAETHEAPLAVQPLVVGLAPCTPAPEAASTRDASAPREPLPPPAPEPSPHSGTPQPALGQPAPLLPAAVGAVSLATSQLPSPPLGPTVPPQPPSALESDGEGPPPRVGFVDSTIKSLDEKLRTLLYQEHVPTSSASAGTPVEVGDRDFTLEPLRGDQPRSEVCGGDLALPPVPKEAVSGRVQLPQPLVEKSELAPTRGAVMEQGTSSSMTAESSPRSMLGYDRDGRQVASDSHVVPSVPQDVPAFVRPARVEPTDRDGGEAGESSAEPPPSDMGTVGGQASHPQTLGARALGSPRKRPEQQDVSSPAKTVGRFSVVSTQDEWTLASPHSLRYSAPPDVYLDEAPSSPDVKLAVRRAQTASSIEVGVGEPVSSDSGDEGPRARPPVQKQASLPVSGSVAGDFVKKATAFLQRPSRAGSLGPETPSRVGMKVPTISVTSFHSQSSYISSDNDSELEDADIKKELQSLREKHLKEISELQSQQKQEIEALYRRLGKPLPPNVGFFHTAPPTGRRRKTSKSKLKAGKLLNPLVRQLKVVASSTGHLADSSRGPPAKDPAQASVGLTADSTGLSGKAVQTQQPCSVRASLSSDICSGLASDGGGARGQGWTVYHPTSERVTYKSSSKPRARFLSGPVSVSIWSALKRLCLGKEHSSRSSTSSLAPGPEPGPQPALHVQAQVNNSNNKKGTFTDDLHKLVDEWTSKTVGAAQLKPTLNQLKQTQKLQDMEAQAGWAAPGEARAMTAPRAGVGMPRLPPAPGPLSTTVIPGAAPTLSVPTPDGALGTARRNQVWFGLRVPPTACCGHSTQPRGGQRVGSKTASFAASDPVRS
UniProt Q9UL54, sequence (whole entry, looked up): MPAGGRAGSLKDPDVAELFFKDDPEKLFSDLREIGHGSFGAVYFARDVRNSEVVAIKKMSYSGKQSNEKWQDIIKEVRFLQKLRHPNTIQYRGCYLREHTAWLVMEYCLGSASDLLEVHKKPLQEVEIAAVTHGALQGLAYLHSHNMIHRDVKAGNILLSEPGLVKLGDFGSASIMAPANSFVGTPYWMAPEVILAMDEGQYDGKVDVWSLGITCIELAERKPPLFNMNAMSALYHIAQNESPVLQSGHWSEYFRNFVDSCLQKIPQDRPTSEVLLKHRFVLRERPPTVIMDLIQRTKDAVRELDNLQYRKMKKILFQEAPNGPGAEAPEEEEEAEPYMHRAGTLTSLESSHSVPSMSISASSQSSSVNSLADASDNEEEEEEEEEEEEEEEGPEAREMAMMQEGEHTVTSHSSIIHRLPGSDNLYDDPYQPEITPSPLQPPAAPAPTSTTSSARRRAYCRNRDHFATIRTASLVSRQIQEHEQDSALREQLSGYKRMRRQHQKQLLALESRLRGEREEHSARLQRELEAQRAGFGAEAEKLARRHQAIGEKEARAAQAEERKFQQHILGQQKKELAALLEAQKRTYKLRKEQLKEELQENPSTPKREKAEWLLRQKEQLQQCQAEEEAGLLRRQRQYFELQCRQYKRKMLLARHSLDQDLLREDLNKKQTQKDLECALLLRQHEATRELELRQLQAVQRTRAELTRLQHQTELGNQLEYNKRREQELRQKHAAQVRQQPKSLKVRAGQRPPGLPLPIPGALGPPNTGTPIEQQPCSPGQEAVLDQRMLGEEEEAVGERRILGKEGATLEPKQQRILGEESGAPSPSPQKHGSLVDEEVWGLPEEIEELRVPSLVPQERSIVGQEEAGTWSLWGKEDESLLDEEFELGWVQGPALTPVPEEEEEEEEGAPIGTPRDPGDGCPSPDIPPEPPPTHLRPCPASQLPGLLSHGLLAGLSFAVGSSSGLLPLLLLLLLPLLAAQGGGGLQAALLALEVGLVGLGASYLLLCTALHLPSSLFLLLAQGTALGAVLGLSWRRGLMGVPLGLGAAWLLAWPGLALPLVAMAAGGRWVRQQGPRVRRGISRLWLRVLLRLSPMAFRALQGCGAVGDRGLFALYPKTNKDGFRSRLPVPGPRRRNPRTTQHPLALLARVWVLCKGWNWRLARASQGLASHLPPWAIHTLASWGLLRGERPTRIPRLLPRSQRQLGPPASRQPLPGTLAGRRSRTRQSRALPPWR

Set 1
Target: Dual specificity mitogen-activated protein kinase kinase 1 (MAP2K1, Homo sapiens, UniProt Q02750)
Effect on: enzyme activity
Action: inhibitor
Concentration: 0.5 µM
Reference: control
SMILES	remaining activity
O=C(CCCc1ccc(-c2ccccc2F)cc1)Nc1ccc(O)cc1	104%
CC(C)[C@H](CO)Nc1nc(Nc2cc(N)cc(Cl)c2)c2ncn(C(C)C)c2n1	91.3%
COc1cc2ncnc(Nc3ccc(Oc4ccccc4)cc3)c2cc1OC	85.9%
COc1cc2ncnc(Nc3ccc(F)c(Cl)c3)c2cc1OCCCN1CCOCC1	107%
Cc1nc(-c2ccccc2)c(-c2ccncc2)o1	90.7%
CNC(=O)c1cc(Oc2ccc(NC(=O)Nc3ccc(Cl)c(C(F)(F)F)c3)cc2)ccn1	102%
CN(C)c1ccc(C=C2C(=O)Nc3ccccc32)cc1	97.8%
Cn1sc(=O)n(Cc2ccccc2)c1=O	83.8%
NCCNc1ncc(C(N)=O)c(Nc2cccc(C(F)(F)F)c2)n1	86.5%
O=C(Nc1cccc(Nc2cc(Nc3cccc(C(F)(F)F)c3)ncn2)c1)C1CC1	98.9%
C#Cc1cccc(Nc2ncnc3cc(OCCOC)c(OCCOC)cc23)c1	105%
O=C1NC(=O)C(c2cn(CCCO)c3ncccc23)=C1c1cnccn1	106%

Set 2
Target: Interferon regulatory factor 5, full length, phosphomimetic (IRF5, Homo sapiens, UniProt Q13568-2, residues 1-514, S451D/S453D/S456D/S462D)
Technique: protein-binding microarray
Form: double-stranded DNA, one strand shown
Medium: in vitro
Concentration: 940 nM top
Notes: 60-bp whole probe
Added: salmon DNA 0.4 mg/ml
Reference: random background probes
Direction: higher = stronger binding
All sequences stand within: GCCTAGCAC … GTCTTGATTCGCTTGACGCTGCTG
Oligonucleotide	fitted relative affinity [z-score]
CTCATTCTCTGCTTCTGTATGTGCTAG	2.33
GACGGACTGGGGTATCGGTACGTGCTA	1.93
TTTCTGATCCATTTTGGTTTGTGCTAG	2.53
GACGATCTCTGTTTCGAGACGTGCTAG	1.82
CTATATTAGGGAAGTGTGTTGTGCTAG	-0.0469
TCAGCTTTCCTGATGGTACTGTGCTAG	0.134
ATGAAATGCCACACACACACGTGCTAG	0.303
TTAGATTTGAGTTCCGATTAGTGCTAG	0.775

Set 3
Target: FOSL1, bZIP domain (human)
Technique: DHFR protein complementation
Medium: yeast
Notes: single substitutions, most at no-binding floor
Reference: wild-type JUN-FOS pair
Direction: higher = stronger binding
Parent: JUN, bZIP domain (human); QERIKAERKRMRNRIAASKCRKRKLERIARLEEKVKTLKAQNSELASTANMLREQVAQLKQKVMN; partner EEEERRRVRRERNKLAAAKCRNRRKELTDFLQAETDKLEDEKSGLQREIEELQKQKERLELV
Change	binding fitness [natural log]
L45V	-1.3
L59T	-1.39
Q41K	-0.749
I28L	-0.46
A46I	-0.523
A46V	-0.545
I28N	-0.747
A46M	-0.42

Set 4
Structure (SMILES): CS(=O)(=O)N1CCCC(NC(=O)[C@H](CCC2CCCCC2)NC(=O)c2ccc(CNc3ncnc4c3nnn4-c3ccccc3)cc2)C1 (stereo partly shown)
Effect on: cell-free assay
Technique: competition with immobilised ligand
Concentration: 0.1 µM
target	remaining binding [%]
MAP2K1 (Homo sapiens, UniProt Q02750)	100
RET (Homo sapiens, UniProt P07949, V804L)	83
FLT3 (Homo sapiens, UniProt P36888, R834Q)	94
WNK2 (Homo sapiens, UniProt Q9Y3S1)	100
TAOK2 (Homo sapiens, UniProt Q9UL54)	93
EGFR (Homo sapiens, UniProt P00533, L858R/T790M)	84

For quick reference, copied from above (set 1):
SMILES	remaining activity
CN(C)c1ccc(C=C2C(=O)Nc3ccccc32)cc1	97.8%
O=C(CCCc1ccc(-c2ccccc2F)cc1)Nc1ccc(O)cc1	104%
COc1cc2ncnc(Nc3ccc(F)c(Cl)c3)c2cc1OCCCN1CCOCC1	107%
CNC(=O)c1cc(Oc2ccc(NC(=O)Nc3ccc(Cl)c(C(F)(F)F)c3)cc2)ccn1	102%
Cn1sc(=O)n(Cc2ccccc2)c1=O	83.8%
